Assay results from different studies.
Protocols differ between the studies behind these lines. Several values in a cell are separate wells, animals, samples, runs or records. Numbers after ± are the reported error.

CN(O)C(=O)CCC(=O)NCCCN(CCCCN(CCCNC(=O)CCC(=O)N(C)O)C(=O)CCC(=O)N(C)O)C(=O)CCC(=O)N(C)O.[89Zr]
tracer uptake (mouse, spleen; 24 h): 0.03 %ID/g

C=C(NC(=O)c1csc(-c2nc3c(cc2O)-c2nc(cs2)C(=O)NC(C(C)O)C(=O)NC(=C(C)OC)c2nc(cs2)C(=O)NC2c4nc(cs4)C(=O)NC(COC(=O)c4c5c6c(cccc6n4O)COC(=O)C(OC4CC(C)(O)C(N(C)C)C(C)O4)C2OC5)c2nc-3cs2)n1)C(N)=O (centres unmarked)
half-life (Sprague-Dawley rat, male, plasma; intravenous infusion, 6 mg/kg, multiple doses, day 7): 436 min

CN([O-])C(=O)CN1CCN(CC(=O)N(C)[O-])CCN(Cc2ccccn2)CC1.[89Zr+4]
tracer uptake (mouse, spleen; intravenous, 24 h): 0.18 %ID/g

Cc1c(-c2ccc(N3CCc4cccc(C(=O)Nc5nc6ccccc6s5)c4C3)nc2C(=O)O)cnn1CC12CC3CC(CC(C3)C1)C2
Cmax (Sprague-Dawley rat, male, anaesthetised, plasma; intravenous step infusion, 100 mg/kg, 85 min): 332000 ng/mL

CCCCN1C(=O)c2cccc3c(NCCCCCN4CCOCC4)ccc(c23)C1=O
fluorescence quantum yield (ethylene glycol): 0.73

COc1ccc2c(c1)O[B-]1(c3ccccc3)OC(=O)C(c3ccccc3)=N[N+]1=C2C (centres unmarked)
molar absorption coefficient (toluene): 22000 M⁻¹ cm⁻¹

CCCCN1C(=O)c2cccc3c(NCCN4CCOCC4)ccc(c23)C1=O
molar extinction coefficient (DCM): 6390 M⁻¹ cm⁻¹

COc1ccc2c(c1)CCn1c[n+]3c(c1-2)-c1ccc(OC)cc1CC3
Lymphocytes (female NSG mice, blood; 6 mg/kg, day 7, 5 days per week): 11.1 ± 6.98%

O=C1CCC(N2Cc3cc(C(=O)O)c(F)cc3C2=O)C(=O)N1 (centres unmarked)
plasma concentration (cynomolgus monkey, male; oral, 0.3 mg/kg parent drug, 12 h): 0.35 ± 0.1 ng/mL

CCCCN1C(=O)c2cccc3c(NCCCCCCCCCCN4CCOCC4)ccc(c23)C1=O
molar extinction coefficient (DMSO): 13600 M⁻¹ cm⁻¹

CCC(CC)n1c(Cc2ccco2)nc2cc(C(=O)N[C@@H](CC(=O)O)c3ccccc3)ccc21
cardiac function (echocardiography, refers to: LVEF, FS; mouse; dose not given, 2 wk): no effect

C=CC(=O)Nc1cc(Nc2nccc(-c3c[nH]c4ccccc34)n2)c(OC)cc1N(C)CCN(C)C
recovery (storage stability; human dried blood spot; 10 d, -80 °C, MQC level): 88.7%

CCCC[C@H](NC(=O)CNC(=O)CNC(=O)[C@H](CCCCNC(=O)[C@H](CC(=O)O)NC(=O)C(C)c1ccc(CC(C)C)cc1)NC(=O)CN1CCN(CC(=O)O)CCN(CC(=O)O)CCN(CC(=O)O)CC1)C(=O)N[C@H]1CC(=O)NCCCC[C@@H](C(N)=O)NC(=O)[C@H](Cc2c[nH]c3ccccc23)NC(=O)[C@H](CCCNC(=N)N)NC(=O)[C@@H](Cc2ccccc2)NC(=O)[C@H](Cc2c[nH]cn2)NC1=O (some centres unmarked) [lutetium-177 labelled]
tumour-to-tissue ratio (C57 mice, tumour; intravenous, 0.037 MBq, 4 h; reference: lung): 41.1

CCCCCC(=O)[O][Pt]([Cl])([Cl])[O]C(=O)CCCCC.N.N
distribution half-life (ICP-MS, refers to: platinum; nude mice, blood; intravenous, 1.76 mg/kg): 10.8 min and 11.2 min

C=C[C@]1(C)C[C@@H](OC(=O)CSc2ccc(NC(=O)c3ccco3)cc2)[C@]2(C)[C@H](C)CC[C@]3(CCC(=O)[C@H]32)[C@@H](C)[C@@H]1O
Tmax (chicken, Mycoplasmoides gallisepticum infected, plasma; intramuscular, 80 mg/kg): 21.4 min and 21.6 min

OC1(C(F)(F)F)CCN(c2nc(Nc3ccnc(C(F)(F)F)c3)nc(-c3cccc(C(F)(F)F)n3)n2)C1 (centres unmarked)
half-life (Sprague-Dawley rat, both sexes, plasma; oral gavage, 5 mg/kg, day 1): 912 ± 191 min

CC(C)(C)NCC(SS(=O)(=O)O)c1ccccc1 (centres unmarked)
body weight (Swiss Webster mice, Schistosoma mansoni-infected; 100 mg/kg x 4 doses from day 42 post-infection, perfusion day 56 post-infection): 33 g

O=C1C2CC3CC1CC(C(=O)N1CCN(c4ccc([N+](=O)[O-])c5ncccc45)CC1)(C3)C2
plasma concentration (male ICR mice, plasma; intravenous, 1 mg/kg, 0.25 h): 75.1 ng/mL

C=CC(=O)N1CCCC(n2c(=O)c3ncccc3n(Cc3ccc(Oc4ccccc4)cc3)c2=O)C1 (centres unmarked)
plasma concentration (BALB/c mice, male, plasma; intraperitoneal, 200 mg/kg, 2 h): 48300 ng/mL

COCC1CN(C2CCN(c3cc(OC)c(Nc4ncc(Br)c(Nc5ccc6c(c5P(C)(C)=O)OCCO6)n4)cc3C)CC2)C1
Tmax at steady state (EGFR-mutant NSCLC patients, plasma; oral, 10 mg multiple doses, median): 122 min

O=C(Nc1cnccc1-c1ccc([18F])cc1)c1ccnc(NC(=O)C2CC2)c1
mean SUV (ex vivo biodistribution, gamma counting; GSK-3β overexpressing transgenic mouse, late stage, caudate nucleus; intravenous, 120 min post-injection, together with: tariquidar 15 mg/kg iv, at least 120 min before tracer): 0.23

C/C(N)=N/C(=N\S(=O)(=O)c1ccc(C(F)(F)F)cc1)N1C[C@H](c2ccccc2)C(c2ccc(Cl)cc2)=N1
bioavailability (beagle dog, plasma; oral, 24 mg/kg): 28%

C#CC(C)(C)C(=O)SCCOP1(=O)OCC2OC(n3cnc4c(N)ncnc43)CC2OP(=O)(OCCSC(=O)C(C)(C)C#C)OCC2OC(n3cnc4c(N)ncnc43)CC2O1 (centres unmarked)
RDW-SD (non-tumor-bearing mice, blood; intravenous, 1 mg/kg, toxicity study): 19.88 ± 0.17 fL

CC(C)[C@H](NC(=O)[C@H](Cc1c[nH]c2ccccc12)NC(=O)[C@H](CCCNC(=N)N)NC(=O)[C@H](CCCNC(=N)N)NC(=O)[C@@H](NC(=O)[C@@H](NC(=O)[C@H](CCCNC(=N)N)NC(=O)[C@@H](NC(=O)[C@@H](NC(=O)[C@H](CCCNC(=N)N)NC(=O)[C@H](CCCNC(=N)N)NC(=O)[C@@H](NC(=O)[C@H](Cc1c[nH]c2ccccc12)NC(=O)[C@H](CCCNC(=N)N)NC(=O)[C@H](CCCNC(=N)N)NC(=O)[C@@H](NC(=O)[C@H](CCCNC(=N)N)NC(=O)[C@H](CCCNC(=N)N)NC(=O)[C@@H](NC(=O)[C@H](Cc1c[nH]c2ccccc12)NC(=O)[C@H](CCCNC(=N)N)NC(=O)[C@@H](N)CCCNC(=N)N)C(C)C)C(C)C)C(C)C)C(C)C)C(C)C)C(C)C)C(C)C)C(=O)N[C@@H](CCCNC(=N)N)C(=O)N[C@@H](CCCNC(=N)N)C(=O)O
chloride (CD1 mouse, plasma; intravenous, 15 mg/kg, 16 h, [14C]-labelled compound): 100 mEq/L

CCCCN1C(=O)c2cccc3c(NCCCCCCN4CCOCC4)ccc(c23)C1=O
molar extinction coefficient (ethylene glycol): 13600 M⁻¹ cm⁻¹

CNC(=O)C1CCCN(C(=O)C2CC3CCC2N3C(=O)[C@@H]2C[C@@H](O)CN2C(=O)NCc2cccc(Cl)c2F)C1 (mixture of isomers)
AUC(0-inf) (Sprague-Dawley rat, plasma; oral, 8 mg/kg): 8.47 ng·h/mL

CCC(CC)CNC(=N)NC(=N)NCCCCCCNC(=N)NC(=N)NCC(CC)CC
scaled CLint (metabolic stability; dog, hepatocytes; 1 µM): 62.8 mL/min/kg

CN1CCCNC(=O)c2cccc(c2)C(=O)NCCCN(C)CCCNc2cccc3c2C(=O)c2cccc(c2C3=O)NCCC1
uric acid (mouse, serum; dose not given): 2.4 mg/dL and 2.5 mg/dL and 2.2 mg/dL

CCC(C(=O)Nc1ccc(C(N)=O)c(F)c1)n1cc(OC)c(-c2cc(Cl)ccc2-n2cc(C(F)(F)F)nn2)cc1=O (centres unmarked)
mild adverse events (healthy male humans; 25 mg, ASD vs IR, fasted): 13.3%

A few entries again:
CCCCN1C(=O)c2cccc3c(NCCN4CCOCC4)ccc(c23)C1=O
molar extinction coefficient (DCM): 6390 M⁻¹ cm⁻¹

COc1ccc2c(c1)CCn1c[n+]3c(c1-2)-c1ccc(OC)cc1CC3
Lymphocytes (female NSG mice, blood; 6 mg/kg, day 7, 5 days per week): 11.1 ± 6.98%
